Measured values pooled from the literature.
Each line is one published result; not all experiments were run side by side. Numbers after ± are the reported error.
ESR2: Estrogen receptor beta (ESR2, Homo sapiens, UniProt Q92731)
UniProt Q92731, sequence (whole entry, looked up): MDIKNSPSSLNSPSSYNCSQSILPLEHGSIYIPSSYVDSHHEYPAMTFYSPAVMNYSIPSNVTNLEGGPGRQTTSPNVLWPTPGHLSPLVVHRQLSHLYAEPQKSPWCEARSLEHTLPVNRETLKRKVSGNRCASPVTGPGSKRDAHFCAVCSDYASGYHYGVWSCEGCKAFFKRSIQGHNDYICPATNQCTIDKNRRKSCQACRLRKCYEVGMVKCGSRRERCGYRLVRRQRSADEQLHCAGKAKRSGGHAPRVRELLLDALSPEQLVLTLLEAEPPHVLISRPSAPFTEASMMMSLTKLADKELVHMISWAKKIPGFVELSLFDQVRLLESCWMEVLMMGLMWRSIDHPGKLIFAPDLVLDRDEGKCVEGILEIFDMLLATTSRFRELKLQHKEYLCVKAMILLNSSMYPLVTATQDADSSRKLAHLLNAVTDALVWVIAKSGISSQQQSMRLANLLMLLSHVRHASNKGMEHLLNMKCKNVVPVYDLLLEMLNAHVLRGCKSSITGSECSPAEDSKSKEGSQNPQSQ
VCP: Transitional endoplasmic reticulum ATPase (VCP, Homo sapiens, UniProt P55072)
UniProt P55072, sequence (whole entry, looked up): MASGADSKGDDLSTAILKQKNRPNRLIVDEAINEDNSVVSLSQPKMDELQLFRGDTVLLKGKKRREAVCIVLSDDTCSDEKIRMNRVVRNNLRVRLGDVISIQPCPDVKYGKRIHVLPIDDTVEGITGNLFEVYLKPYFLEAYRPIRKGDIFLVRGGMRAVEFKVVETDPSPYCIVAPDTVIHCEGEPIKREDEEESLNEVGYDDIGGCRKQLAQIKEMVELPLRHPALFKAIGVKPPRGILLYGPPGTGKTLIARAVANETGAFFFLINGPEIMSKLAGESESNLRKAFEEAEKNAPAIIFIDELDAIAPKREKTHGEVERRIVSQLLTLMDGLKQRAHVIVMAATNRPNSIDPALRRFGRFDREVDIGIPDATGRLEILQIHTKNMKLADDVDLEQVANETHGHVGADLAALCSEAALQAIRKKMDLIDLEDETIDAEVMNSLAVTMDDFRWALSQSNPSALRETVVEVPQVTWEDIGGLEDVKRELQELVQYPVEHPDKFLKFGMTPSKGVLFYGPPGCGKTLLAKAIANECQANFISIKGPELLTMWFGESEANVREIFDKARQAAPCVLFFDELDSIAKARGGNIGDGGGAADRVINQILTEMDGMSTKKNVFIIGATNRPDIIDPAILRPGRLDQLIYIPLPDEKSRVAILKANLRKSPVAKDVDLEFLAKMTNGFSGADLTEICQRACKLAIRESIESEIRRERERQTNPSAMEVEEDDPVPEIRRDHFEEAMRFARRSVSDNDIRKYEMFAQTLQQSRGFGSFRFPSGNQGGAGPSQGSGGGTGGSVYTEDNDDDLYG
BRAP ZnF-UBD domain: BRCA1-associated protein, ZnF-UBD domain (BRAP, Homo sapiens, UniProt Q7Z569)
UniProt Q7Z569, sequence (whole entry, looked up): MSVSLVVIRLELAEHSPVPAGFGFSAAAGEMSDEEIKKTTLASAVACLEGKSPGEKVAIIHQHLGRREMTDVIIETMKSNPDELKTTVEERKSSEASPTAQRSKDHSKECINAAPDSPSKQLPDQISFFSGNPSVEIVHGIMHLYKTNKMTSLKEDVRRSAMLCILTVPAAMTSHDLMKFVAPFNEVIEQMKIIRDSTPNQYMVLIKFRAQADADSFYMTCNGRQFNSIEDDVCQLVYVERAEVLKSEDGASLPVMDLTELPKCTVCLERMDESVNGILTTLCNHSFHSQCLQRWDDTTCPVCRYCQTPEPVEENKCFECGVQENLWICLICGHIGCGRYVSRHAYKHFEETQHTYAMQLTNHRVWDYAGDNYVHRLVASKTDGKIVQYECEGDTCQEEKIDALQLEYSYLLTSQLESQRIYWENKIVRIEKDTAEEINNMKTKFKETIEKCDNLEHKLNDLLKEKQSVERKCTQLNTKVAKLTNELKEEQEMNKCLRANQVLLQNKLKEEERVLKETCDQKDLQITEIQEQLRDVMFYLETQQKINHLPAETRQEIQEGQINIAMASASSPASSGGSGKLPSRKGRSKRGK
GPR84: G-protein coupled receptor 84 (GPR84, Homo sapiens, UniProt Q9NQS5)
UniProt Q9NQS5, sequence (whole entry, looked up): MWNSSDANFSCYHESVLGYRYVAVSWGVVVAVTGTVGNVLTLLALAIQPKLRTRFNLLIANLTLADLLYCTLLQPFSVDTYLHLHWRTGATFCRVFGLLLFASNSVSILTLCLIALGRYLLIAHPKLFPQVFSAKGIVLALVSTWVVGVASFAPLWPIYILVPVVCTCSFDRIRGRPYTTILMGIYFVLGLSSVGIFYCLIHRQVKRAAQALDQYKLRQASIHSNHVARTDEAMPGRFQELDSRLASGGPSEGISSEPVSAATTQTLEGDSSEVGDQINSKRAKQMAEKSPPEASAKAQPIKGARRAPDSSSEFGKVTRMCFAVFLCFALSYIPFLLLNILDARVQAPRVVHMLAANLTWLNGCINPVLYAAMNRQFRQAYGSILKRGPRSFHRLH
UniProt Q92633, sequence (whole entry, unmodified, looked up): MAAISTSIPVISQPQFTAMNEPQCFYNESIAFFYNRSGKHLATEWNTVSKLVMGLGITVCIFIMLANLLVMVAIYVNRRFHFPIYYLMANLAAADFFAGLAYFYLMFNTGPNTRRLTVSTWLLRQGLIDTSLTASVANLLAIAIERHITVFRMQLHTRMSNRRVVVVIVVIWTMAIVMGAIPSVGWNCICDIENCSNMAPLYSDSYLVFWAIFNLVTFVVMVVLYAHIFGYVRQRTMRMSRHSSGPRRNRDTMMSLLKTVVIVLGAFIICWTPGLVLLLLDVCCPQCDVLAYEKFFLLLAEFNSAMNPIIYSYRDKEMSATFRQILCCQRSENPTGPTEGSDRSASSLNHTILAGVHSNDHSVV
UniProt P28335, sequence (whole entry, looked up): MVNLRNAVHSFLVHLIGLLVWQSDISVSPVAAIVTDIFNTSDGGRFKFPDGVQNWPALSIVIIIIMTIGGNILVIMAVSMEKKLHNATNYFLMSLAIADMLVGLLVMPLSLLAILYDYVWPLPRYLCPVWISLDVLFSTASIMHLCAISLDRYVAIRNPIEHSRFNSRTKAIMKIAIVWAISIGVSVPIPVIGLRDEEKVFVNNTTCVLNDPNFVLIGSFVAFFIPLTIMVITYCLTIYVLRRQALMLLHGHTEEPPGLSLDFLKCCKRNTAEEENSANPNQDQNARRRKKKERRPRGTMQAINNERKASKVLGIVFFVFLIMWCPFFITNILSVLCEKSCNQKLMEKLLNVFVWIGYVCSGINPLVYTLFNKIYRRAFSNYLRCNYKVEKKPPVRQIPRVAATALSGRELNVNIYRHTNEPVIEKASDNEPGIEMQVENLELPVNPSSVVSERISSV
UniProt P41227, sequence (whole entry, looked up): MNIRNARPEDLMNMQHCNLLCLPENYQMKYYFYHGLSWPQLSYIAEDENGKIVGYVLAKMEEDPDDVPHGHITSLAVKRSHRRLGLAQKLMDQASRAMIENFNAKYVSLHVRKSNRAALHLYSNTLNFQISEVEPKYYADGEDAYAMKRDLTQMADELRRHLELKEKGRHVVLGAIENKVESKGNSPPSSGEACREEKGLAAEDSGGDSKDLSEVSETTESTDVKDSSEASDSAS
UniProt Q99523, sequence (whole entry, looked up): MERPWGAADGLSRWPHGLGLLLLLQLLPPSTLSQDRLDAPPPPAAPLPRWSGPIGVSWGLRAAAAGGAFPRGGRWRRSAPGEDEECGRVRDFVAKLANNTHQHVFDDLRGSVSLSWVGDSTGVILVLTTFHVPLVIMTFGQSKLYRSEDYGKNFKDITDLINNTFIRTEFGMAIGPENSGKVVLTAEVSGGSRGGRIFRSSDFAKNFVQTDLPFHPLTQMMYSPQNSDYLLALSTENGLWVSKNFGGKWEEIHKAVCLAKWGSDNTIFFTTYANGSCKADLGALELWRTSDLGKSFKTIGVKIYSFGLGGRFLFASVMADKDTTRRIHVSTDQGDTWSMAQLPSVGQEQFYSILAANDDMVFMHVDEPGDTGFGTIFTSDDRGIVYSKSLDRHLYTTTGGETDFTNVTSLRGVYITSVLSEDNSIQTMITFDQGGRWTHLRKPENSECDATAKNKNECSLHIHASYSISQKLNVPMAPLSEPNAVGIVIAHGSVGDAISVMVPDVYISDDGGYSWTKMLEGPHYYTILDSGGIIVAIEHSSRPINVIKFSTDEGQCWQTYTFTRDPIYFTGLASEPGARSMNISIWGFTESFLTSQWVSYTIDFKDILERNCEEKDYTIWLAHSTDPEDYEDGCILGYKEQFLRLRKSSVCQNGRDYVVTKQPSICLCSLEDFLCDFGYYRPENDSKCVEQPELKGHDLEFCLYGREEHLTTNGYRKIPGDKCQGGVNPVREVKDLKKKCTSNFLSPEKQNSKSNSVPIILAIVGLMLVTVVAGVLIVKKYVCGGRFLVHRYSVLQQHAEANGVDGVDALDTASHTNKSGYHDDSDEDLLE

O=C(/C=C/c1ccc(O)cc1)c1ccc(O)cc1O  EC50 (ESR2; array formation, agonist; GFP-ERβ PRL-HeLa; 1 h): 0.309 µM
Brc1ccc(-c2nc(NCc3ccccc3)c3ccccc3n2)cc1  IC50 (VCP; enzyme activity, inhibitor): 72 ± 14 µM
O=C(/C=C/c1ccc(O)c(O)c1)c1ccc(O)cc1O  EC50 (ESR2; array formation, agonist; GFP-ERβ PRL-HeLa; 1 h): 0.454 µM
O=C(O)CCc1nccs1  Kd (BRAP ZnF-UBD domain): > 1000 µM
Fc1ccc(Nc2nc(NCc3ccccc3)c3ccccc3n2)cc1  IC50 (VCP; enzyme activity, inhibitor): 3.8 ± 1.2 µM
O=c1cc(NCCc2ccc(F)cc2)[nH]c(=O)[nH]1  EC50 (GPR84; agonist): 1.95 µM
COc1ccc(-c2cc(=O)c3c(O)cc(O[C@@H]4O[C@H](CO[C@@H]5O[C@@H](C)[C@H](O)[C@@H](O)[C@H]5O)[C@@H](O)[C@H](O)[C@H]4O)cc3o2)cc1  EC50 (ESR2; array formation, agonist; GFP-ERβ PRL-HeLa; 1 h): 0.178 µM
O=C(O)CC1Oc2ccccc2NC1=O (stereo not drawn)  Kd (BRAP ZnF-UBD domain): > 1000 µM
O=c1cc(-c2ccc(O)c(-c3c(O)cc(O)c4c(=O)cc(-c5ccc(O)cc5)oc34)c2)oc2cc(O)cc(O)c12  EC50 (ESR2; array formation, agonist; GFP-ERβ PRL-HeLa; 1 h): 3.51 µM
O=c1cc(NCCc2cccc(Cl)c2)[nH]c(=O)[nH]1  EC50 (GPR84; cAMP): 0.126 µM
FC(F)(F)c1ccc(Nc2nc3ccc(Oc4ccnc(-c5ncc(C(F)(F)F)[nH]5)c4)cc3[nH]2)cc1  EC50 (ESR2; array formation, agonist; GFP-ERβ PRL-HeLa; 1 h): 4.55 µM
O=C(O)CCc1ccccc1  Kd (BRAP ZnF-UBD domain): 82.9 µM
CCc1oc2c([C@H](CO)N(CC)CC)cccc2c1C  EC50 (LPAR1 (Homo sapiens, UniProt Q92633, Q125A); Gi protein dissociation, agonist, NanoBiT; HEK293T): 0.0065 µM
COc1ccc(CCNc2cc(=O)[nH]c(=O)[nH]2)cc1  EC50 (GPR84; cAMP): 0.0575 µM
O=C(O)CCC(=O)c1ccc(S(=O)(=O)N2CCCC2)cc1  Kd (BRAP ZnF-UBD domain): 340 µM
O=c1cc(N2CCC(Cc3ccccc3)CC2)[nH]c(=O)[nH]1  EC50 (GPR84; agonist): 0.603 µM
O=C(O)CNc1ccc2nncn2n1  Kd (BRAP ZnF-UBD domain): > 1000 µM
CC(C)(COP(=O)(O)OP(=O)(O)OC[C@H]1O[C@@H](n2cnc3c(N)ncnc32)[C@H](O)[C@@H]1OP(=O)(O)O)[C@@H](O)C(=O)NCCC(=O)NCCS  Kd (N-alpha-acetyltransferase 10 (Homo sapiens, UniProt P41227); competitor, competition MS pulldown; SW-620 cell lysate; together with: photo-immobilized beads): 1.38 µM
COc1cc2oc(=O)cc(C)c2cc1CCC(=O)O  Kd (BRAP ZnF-UBD domain): 71.6 µM
C=C1CN(S(=O)(=O)c2ccc(C)cc2)CCc2cc(-c3ccccc3)cc(n2)CCN(S(=O)(=O)c2ccc(C)cc2)C1  DC50 (Sortilin (Homo sapiens, UniProt Q99523); protein expression, flow cytometry; HEK-293T expressing sortilin-GFP; 24 h): 4 ± 2 µM
Cc1ccc(Nc2nc(Nc3ccc(C)cc3)c3ccccc3n2)cc1  IC50 (VCP; enzyme activity, inhibitor): 54 ± 19 µM
Nc1ncnc2c1ncn2[C@@H]1O[C@H](COP(=O)(O)OP(=O)(O)O)[C@@H](O)[C@H]1O  Kd (CKMT1A (Homo sapiens, UniProt P12532, E264A); microscale thermophoresis; pH 7.0, E226A mutant, no substrate): 31 ± 3 µM
O=C(CCc1ccc(O)cc1)c1c(O)cc(O)cc1O[C@@H]1O[C@H](CO)[C@@H](O)[C@H](O)[C@H]1O  EC50 (ESR2; array formation, agonist; GFP-ERβ PRL-HeLa; 1 h): 4.42 µM
O=C(O)CCC(=O)Nc1cccc2ccccc12  Kd (BRAP ZnF-UBD domain): 66 µM
COc1cccc2c(NCc3ccc(O)cc3)nc(N3CCOc4ccccc43)nc12  IC50 (VCP; enzyme activity, inhibitor): 2.4 ± 0.5 µM
CCCCCCCCCNc1cc(=O)[nH]c(=O)[nH]1  EC50 (GPR84; agonist): 0.0339 µM
CNC(=O)[C@@]12C[C@@H]1[C@@H](n1cnc3c(NC)nc(C#C[c-]4cccc4)nc31)[C@H](O)[C@@H]2O.[Fe+2].c1cc[cH-]c1  Ki (HTR2C (Homo sapiens, UniProt P28335); radioligand binding (PDSP)): 0.277 µM
COc1cc(O)c(CC=C(C)C)c2c1C(=O)CC(c1ccc(O)cc1)O2 (stereo not drawn)  EC50 (ESR2; array formation, agonist; GFP-ERβ PRL-HeLa; 1 h): 2.24 µM
CSCCCNc1cc(=O)[nH]c(=O)[nH]1  EC50 (GPR84; cAMP level, agonist; human cells): 22.6 ± 3.1 µM
Fc1ccccc1Nc1nc(NCc2ccccc2)c2ccccc2n1  IC50 (VCP; enzyme activity, inhibitor): 0.85 ± 0.17 µM
COc1cc(-c2oc3cc(O)cc(O)c3c(=O)c2O[C@@H]2O[C@H](CO)[C@@H](O)[C@H](O)[C@H]2O[C@@H]2O[C@@H](C)[C@H](O)[C@@H](O)[C@H]2O)ccc1O  EC50 (ESR2; array formation, agonist; GFP-ERβ PRL-HeLa; 1 h): 7.22 µM
CC(Nc1nc(N2CCOCC2)nc2ccccc12)c1ccccc1 (stereo not drawn)  IC50 (VCP; enzyme activity, inhibitor): 34 ± 10 µM
O=c1cc(NCCOc2ccccc2)[nH]c(=O)[nH]1  EC50 (GPR84; cAMP level, agonist; human cells): 0.101 ± 0.053 µM
O=C(O)Cc1cccc2cccnc12  Kd (BRAP ZnF-UBD domain): > 1000 µM
COc1ccccc1N1CCN(c2cc(=O)[nH]c(=O)[nH]2)CC1  EC50 (GPR84; cAMP level, agonist; human cells): 0.0378 ± 0.0071 µM
COc1cccc2c(NCc3ccc(NC(=O)OCC4c5ccccc5-c5ccccc54)cc3)nc(N3CCOc4ccccc43)nc12  IC50 (VCP; enzyme activity, inhibitor): 33 ± 7 µM
